# Results from different studies.
# Each numbered part is a random draw from the data of one study; scales do not carry over between parts.

# Set 1
# Target: Sal-like protein 4, full length isoform B (SALL4, Homo sapiens, UniProt Q9UJQ4-2, residues 1-616)
# Technique: universal PBM
# Molecule type: double-stranded DNA, one strand shown
# Matrix: in vitro
# Concentration: not given
# Setting: 8-mer, flanks averaged, mean of replicates
# Reading: higher = stronger binding
Sequence,E-score
ACCTATGG,-0.0128
CCTATAAA,0.234
TCATCGGA,-0.00125
CCTAGCCA,0.0071
AGACGCAC,-0.0697
CTTGACTA,-0.0447
ACATGGCC,-0.0706
GGGTATGA,0.0925
ACCATTTA,0.229
GCCTTGCA,-0.0499
CTCATTAC,0.229
ACTGCCTG,-0.107
CAAAATCA,0.136
ATCGGATA,0.149
CAGAACTC,-0.184
ATGACGAG,0.0193
CGACAGTC,-0.265

# Set 2
# Target: Histone acetyltransferase KAT6A, winged helix 1, GST fusion (KAT6A, Homo sapiens, UniProt Q92794, residues 1-85)
# Technique: protein binding microarray
# Molecule type: double-stranded DNA, one strand shown
# Matrix: in vitro
# Concentration: not given
# Setting: 8-mer, flanks averaged, mean of 2 arrays, mostly near background
# Reference: not given
# Reading: higher = stronger binding
# Construct (chain): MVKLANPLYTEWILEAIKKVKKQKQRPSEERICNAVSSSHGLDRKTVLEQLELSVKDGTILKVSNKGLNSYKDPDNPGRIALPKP
Sequence,E-score
CAGTCGTA,-0.0161
AGTGTTGG,-0.106
GCACTACA,-0.112
AAGCGACA,0.117
ACGACGCT,0.111
ATTTTGGA,-0.159
AGAGTTCC,-0.131
CCAAGGGG,-0.0183
GATTAAGC,-0.0666
AGTGAGTC,-0.0962
AAACGTGC,-0.119
CCGGTCTA,-0.0165
CTAACCCC,0.00626
CCAGGAGG,-0.199
ATAGGTCC,-0.0182
CATGGCGC,0.357
GACTCTGC,-0.156
GCACACGA,0.0118
ATGTATCG,-0.0772

# Set 3
# Target: Ras GTPase-activating protein-binding protein 1, full length (G3BP1, Homo sapiens, UniProt Q13283)
# UniProt Q13283, sequence (whole entry, looked up): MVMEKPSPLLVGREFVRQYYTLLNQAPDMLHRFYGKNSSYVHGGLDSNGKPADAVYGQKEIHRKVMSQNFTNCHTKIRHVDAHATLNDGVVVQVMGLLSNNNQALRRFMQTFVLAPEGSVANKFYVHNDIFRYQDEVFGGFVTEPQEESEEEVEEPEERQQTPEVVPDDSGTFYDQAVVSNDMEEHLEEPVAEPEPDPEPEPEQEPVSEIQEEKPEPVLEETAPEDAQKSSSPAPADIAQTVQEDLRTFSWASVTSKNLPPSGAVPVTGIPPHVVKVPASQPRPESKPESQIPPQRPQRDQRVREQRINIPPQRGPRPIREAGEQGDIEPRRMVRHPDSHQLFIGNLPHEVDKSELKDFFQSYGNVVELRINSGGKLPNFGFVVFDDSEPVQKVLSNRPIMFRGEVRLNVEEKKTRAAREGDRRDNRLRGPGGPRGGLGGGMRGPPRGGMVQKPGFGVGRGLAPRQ
# Technique: RNA Bind-n-Seq
# Molecule type: RNA
# Matrix: in vitro
# Concentration: 200 nM
# Setting: whole 134-nt RNA, ends assumed
# Added: 150 mM KCl
# Reference: input library
# Reading: higher = stronger binding
# Constant ends, left off below: GGGAGUUCUACAGUCCGACGAUC … UGGAAUUCUCGGGUGUCAAGG
Sequence,log2 enrichment
GCAGGAAGUAAAAACAAAUGGAAAUGCUUCGGAUAGUGGCAGGGGUGGGGGUUGCUAAGGAAAGGGUGGGAUGGGAGUGGCUAAAGAGUU,0.885
AGUCCUGUGCUACACAUCGUAUGUACCGAAUCAAAUUUUUAAACCCAAAUUUUUAAAAAAGUAUUAUGUUACGCCGUUCGGAUCUGCACU,-0.609
CCUCAAGUCCUGUGCUACACAUCGUAUGUACCGAAUCGGGCCGGGCCGGCCGGAAAGUAUUAUGUUACGCCGUUCGGAUCUGCACUUCCA,-0.246
GCAGGAAGUAAAAACAAAUGGAAAUGCUUCGGAUAGUGGCAGGGGAGGGGGUUGCUAAGGAAAGGGUGGGAUGGGAGUGGGUAAAGAGUU,1.02
UGGGAGGUGGAUUUUGUUUAUUUUUUUAGCUCAUUUCCAGGGGUGGGAAUUUUUUUUUAAUAUGCGUCAUGAAUAAAGUUGUUUUUGAAA,0.0332
CUCAAGUCCUGUGCUACACAUCGUAUGUACCGAAUCGGGCCGGGGCCGGGCCGGAAAGUAUUAUGUUACGCCGUUCGGAUCUGCACUUCC,-0.215
CCUCAAGUCCUGUGCUACACAUCGUAUGUACCGAAUCGGAGGAAAGGUUUGGAAAGUAUUAUGUUACGCCGUUCGGAUCUGCACUUCCAG,-0.213
CACAGACAACACGCACCCACACAGACACAGAGGGAAGGGGUUGGAAAGGGGACAGGGUGCACAGCAGGGCGGGGUAGGACCCCAGCCCCU,1.74
AGUCCUGUGCUACACAUCGUAUGUACCGAAUCGGGGAAAGGGGAAAAAGGGGAGGGGAAAGUAUUAUGUUACGCCGUUCGGAUCUGCACU,0.616
ACCAUGCAGGUGGGCAUCUUUGGGAAGUGGGGCAACGGGGGGAUAGGGAGGGGGGUAACACUUUGGGAACAGGUGGUCCCAGGUCGUUUC,1

# Set 4
# Target: RNA binding protein fox-1 homolog 2, RRM domain, GST-SBP tag (RBFOX2, Homo sapiens, UniProt O43251-10, residues 100-194)
# Technique: RNA Bind-n-Seq
# Molecule type: RNA
# Matrix: in vitro
# Concentration: 365 nM
# Setting: natural RNA segment, single round, ends assumed
# Reference: no-protein control
# Reading: higher = stronger binding
# Constant ends, left off below: GGGAGUUCUACAGUCCGACGAUC … UGGAAUUCUCGGGUGCCAA
# Construct (chain): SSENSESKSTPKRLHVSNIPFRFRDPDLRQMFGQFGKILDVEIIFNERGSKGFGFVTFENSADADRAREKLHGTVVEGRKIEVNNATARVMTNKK
Sequence,RBNS enrichment (R)
GGGCAUAUCUUUGUUAAAGUAGAUUUUUUCAAUGUUUUACAGAAUUAAUUUUCAAAAAAAAGUUUUUAUAAUGAAGUUGUUUAUUAAAAACUUCUGAAUGAUGUGCUUUG,1.32
UUGCUUUUAUGAUUUUUUUUGGUUUGUUUUAAUAUCAGGUGGAUUUUUGUUUCUAAGCAAUAUAUACAUAAAAUCAACCAACAUAUCUGAAAAGGAUCAUGAAACCUGAG,0.435
UAUAGUGGAGAAACCAGAAAGAAACUGAGCCCUAGGCUGGGCAUUCCCACUGCAGUGGACCUACUCGGCUUCCUCCCACUGCAAUCCAUUGCCUCUCAGCAUUCCGGCCU,0.711
GUCGCUGAUCUCCCGGAGGAGGAGGCUGUUGACCUGAAAACAGUGGCGUGGCUCCCCUGUGCCCAGAUCUGGCCAUGGGUGAGGCCUGCACAGAUGUUGAAUGAACAUCU,0.492
UCAGUUGAGGCCAGGGUGGUCAGGGUGCAGAAUAAAUGCCAUCGAGCCUGUGGCUGGCCCUCUGCUGCUGUUCUCUCCCUCCAACCUGGCUGUUUCUUGCGGGGCAAGGG,0.846
UUGGAAUGGGAGUCUGAAAUGGGGCUACUGUUUCAGUCCUAAUGUGCUGUGUGACAUUGGGACAACACUUUCCCUCUCUGGACCUCAGUUUCCCUCUGUAUACAAGGAUC,0.3
CGUAGCCAGGUUCCCUCUGCUUUCCUCUGGGAUAUGGAAAGGGGGCCAAGAGGACUUUGGAUCUCUCCUCCAUACACACUACACUGGCCCUUCUCCCCAUCAAGCGCUCA,0.662
AAGUAUCCACUUCCCUUUCUAUGAGCCCCAGCUGCUAUUUUGAGACAUCCUGGGGAAAUCGAGCAGAAAAACUGCACAGUUAUGUCAAAGGGCAAAAGUUUAGAAAUCCA,0.457
CUCUCUGAGCAGAGGAGCAGGAAUCCCUCAAGCAGCAGCCUGGUCUUGGCUGGUGGGCAGAUGCAAAUAGCUUUUGCUGUUAUUAAUGAAGUAAUUACUAAAUGCACUUA,0.339
UGGGAUGUGAAGAAAAAAAAUGAGAACCCAUUGAAAGGAAGAAAGGAAUUUGUUGUCUGCUUCUAAGCUAGAGUGGUUGUAAAGGUUCUGCUCUGCCAGUGUUCAGUAUC,0.862
GCUGUUCCCCUCGGGAACAUGAGGUGGUGGUGGCGCAGCAGACUGCGAUCAAUUCUGCAUGGUCACAGUAGAGAUCCCCGCAACUCGCUUGUCCUUGGGUCACCCUGCAU,3.95
GGGGAUAACGAGACAGGGAAAUGGCCGCCAUGGUGGCCUGCUCCCUGCCAACACUAAUGUUCCCCACACUAUCUUUGUACAUUUCAGAGGUUUGGUCUUCUGGGUGGUGU,0.239

# For quick reference, copied from above (set 1):
Sequence,E-score
ACTGCCTG,-0.107
CAAAATCA,0.136
ATCGGATA,0.149
CAGAACTC,-0.184
ATGACGAG,0.0193
CGACAGTC,-0.265
